Measurements of several laboratories.
Numbered parts are unrelated; each lists some results of a single study.
Chain of UniProt P53671 (whole entry, looked up): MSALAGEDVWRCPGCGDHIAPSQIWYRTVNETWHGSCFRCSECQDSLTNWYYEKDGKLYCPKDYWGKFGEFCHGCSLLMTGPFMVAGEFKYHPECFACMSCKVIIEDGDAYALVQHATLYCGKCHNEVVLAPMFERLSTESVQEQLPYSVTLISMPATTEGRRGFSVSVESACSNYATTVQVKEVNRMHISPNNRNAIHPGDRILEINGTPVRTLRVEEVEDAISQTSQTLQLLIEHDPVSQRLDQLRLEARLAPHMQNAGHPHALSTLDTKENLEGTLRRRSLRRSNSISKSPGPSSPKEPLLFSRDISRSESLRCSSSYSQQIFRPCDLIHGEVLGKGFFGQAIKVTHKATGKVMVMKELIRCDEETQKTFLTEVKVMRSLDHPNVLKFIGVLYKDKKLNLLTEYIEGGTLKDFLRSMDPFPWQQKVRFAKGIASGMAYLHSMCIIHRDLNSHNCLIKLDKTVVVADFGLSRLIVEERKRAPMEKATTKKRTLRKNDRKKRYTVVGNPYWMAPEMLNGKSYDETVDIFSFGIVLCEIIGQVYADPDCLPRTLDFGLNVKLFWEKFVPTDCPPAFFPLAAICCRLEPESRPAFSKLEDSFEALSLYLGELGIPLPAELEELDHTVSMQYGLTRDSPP
Chain of UniProt P07949 (whole entry, looked up): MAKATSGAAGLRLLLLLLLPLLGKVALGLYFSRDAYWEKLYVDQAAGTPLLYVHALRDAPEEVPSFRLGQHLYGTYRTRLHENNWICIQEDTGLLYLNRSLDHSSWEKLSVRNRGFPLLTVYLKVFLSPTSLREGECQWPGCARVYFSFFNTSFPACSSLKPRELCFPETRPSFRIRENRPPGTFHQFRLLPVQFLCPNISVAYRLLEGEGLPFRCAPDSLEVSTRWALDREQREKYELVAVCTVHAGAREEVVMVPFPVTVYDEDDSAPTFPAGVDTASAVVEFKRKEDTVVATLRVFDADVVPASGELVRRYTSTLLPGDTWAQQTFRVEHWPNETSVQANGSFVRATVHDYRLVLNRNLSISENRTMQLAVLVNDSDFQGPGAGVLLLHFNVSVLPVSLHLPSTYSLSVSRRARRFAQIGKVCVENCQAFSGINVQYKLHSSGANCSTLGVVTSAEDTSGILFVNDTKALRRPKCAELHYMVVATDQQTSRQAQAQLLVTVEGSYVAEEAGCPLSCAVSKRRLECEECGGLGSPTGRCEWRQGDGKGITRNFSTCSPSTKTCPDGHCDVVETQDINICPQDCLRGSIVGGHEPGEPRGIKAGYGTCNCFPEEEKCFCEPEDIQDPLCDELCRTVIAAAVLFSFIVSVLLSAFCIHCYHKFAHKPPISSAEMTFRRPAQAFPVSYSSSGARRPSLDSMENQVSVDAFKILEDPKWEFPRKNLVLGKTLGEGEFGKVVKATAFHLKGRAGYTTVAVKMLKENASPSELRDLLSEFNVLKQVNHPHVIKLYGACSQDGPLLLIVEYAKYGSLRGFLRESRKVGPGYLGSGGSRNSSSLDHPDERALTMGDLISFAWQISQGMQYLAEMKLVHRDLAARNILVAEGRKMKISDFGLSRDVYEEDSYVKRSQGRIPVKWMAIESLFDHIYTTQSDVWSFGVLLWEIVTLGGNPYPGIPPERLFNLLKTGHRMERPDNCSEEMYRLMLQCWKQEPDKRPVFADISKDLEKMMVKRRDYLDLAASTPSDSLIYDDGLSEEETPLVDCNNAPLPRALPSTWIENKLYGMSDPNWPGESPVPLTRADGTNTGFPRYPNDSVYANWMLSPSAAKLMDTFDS
Chain of UniProt O95382 (whole entry, looked up): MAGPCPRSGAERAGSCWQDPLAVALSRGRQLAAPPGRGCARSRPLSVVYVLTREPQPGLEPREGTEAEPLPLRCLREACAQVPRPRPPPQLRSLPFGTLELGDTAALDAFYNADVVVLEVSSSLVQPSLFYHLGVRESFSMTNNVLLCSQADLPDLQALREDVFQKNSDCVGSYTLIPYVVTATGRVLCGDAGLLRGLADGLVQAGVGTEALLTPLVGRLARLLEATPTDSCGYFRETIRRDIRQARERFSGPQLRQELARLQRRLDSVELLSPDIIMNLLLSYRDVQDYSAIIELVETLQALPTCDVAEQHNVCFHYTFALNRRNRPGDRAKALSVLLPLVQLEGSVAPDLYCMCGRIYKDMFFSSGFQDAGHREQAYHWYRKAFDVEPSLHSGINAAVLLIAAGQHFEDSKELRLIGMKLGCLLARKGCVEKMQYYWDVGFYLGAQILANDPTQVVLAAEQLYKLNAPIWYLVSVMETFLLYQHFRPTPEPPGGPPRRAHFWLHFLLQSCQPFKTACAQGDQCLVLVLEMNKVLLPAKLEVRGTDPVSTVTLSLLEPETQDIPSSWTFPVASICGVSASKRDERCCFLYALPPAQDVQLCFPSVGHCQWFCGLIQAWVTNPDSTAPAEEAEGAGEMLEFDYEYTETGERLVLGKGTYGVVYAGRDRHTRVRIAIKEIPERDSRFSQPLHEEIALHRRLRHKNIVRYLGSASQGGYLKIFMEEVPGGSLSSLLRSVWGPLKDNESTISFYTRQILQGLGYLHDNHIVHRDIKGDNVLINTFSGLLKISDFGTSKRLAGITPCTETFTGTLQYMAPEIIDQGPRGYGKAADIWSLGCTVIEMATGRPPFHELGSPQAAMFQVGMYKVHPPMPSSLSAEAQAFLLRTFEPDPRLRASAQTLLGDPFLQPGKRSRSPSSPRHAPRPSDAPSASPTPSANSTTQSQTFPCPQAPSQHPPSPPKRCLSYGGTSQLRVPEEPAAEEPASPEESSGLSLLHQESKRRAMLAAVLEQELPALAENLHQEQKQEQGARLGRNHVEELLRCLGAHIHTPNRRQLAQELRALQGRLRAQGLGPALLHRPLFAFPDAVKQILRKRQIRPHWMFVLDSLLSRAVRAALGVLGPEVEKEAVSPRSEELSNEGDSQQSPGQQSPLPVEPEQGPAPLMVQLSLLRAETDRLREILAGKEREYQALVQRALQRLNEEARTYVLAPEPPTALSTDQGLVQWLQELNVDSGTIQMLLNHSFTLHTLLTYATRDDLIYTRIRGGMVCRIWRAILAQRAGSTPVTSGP
Chain of UniProt O43683 (whole entry, looked up): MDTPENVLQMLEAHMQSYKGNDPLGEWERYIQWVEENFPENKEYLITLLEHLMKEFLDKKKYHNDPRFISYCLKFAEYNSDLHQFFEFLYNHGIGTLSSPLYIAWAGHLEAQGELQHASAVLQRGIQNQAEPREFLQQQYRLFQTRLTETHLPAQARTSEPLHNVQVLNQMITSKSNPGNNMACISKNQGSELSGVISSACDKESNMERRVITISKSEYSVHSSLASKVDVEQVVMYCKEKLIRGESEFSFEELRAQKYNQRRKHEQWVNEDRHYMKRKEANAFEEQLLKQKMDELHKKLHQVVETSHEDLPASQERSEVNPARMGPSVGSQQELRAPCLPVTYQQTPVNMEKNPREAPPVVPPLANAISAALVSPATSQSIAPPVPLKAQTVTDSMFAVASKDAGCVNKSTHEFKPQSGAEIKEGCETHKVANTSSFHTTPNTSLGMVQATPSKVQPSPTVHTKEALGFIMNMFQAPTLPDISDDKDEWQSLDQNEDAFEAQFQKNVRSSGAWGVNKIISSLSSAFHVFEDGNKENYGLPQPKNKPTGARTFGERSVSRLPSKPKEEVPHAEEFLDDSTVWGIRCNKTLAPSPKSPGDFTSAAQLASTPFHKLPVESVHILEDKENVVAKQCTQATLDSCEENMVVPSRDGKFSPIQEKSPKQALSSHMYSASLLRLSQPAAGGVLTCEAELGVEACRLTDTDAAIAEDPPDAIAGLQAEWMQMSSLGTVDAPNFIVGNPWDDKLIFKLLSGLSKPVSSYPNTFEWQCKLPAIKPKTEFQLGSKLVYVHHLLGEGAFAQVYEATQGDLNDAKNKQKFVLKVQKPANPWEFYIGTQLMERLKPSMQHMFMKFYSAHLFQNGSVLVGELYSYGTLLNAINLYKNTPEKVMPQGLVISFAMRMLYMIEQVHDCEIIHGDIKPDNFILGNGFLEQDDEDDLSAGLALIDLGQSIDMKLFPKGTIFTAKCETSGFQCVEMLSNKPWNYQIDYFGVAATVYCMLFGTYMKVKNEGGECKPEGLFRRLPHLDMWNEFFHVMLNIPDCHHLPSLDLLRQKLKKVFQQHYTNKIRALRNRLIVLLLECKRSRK
Chain of UniProt Q9BXA7 (whole entry, looked up): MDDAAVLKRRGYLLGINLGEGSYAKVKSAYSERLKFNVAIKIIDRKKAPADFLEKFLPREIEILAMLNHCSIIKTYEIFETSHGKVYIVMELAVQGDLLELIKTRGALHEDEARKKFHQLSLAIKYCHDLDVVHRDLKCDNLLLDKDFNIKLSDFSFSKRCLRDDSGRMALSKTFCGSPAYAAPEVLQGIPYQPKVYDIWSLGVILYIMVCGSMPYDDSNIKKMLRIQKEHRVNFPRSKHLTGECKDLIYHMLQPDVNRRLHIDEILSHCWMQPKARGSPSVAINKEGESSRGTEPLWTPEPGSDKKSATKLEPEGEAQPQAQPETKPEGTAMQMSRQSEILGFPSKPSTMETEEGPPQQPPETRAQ

Study 1 — technique: competition with immobilised ligand; concentration: 1 µM
Structure (SMILES): O=C(O)[C@H]1[C@H](Cn2nnc3ccccc3c2=O)CC[C@@H]1C(=O)c1ccc(OCCC2CCOCC2)cc1
target | observed | remaining binding [%]
Serine/threonine-protein kinase 24 (STK24, Homo sapiens, UniProt Q9Y6E0) | cell-free assay | 90
Mast/stem cell growth factor receptor Kit (KIT, Homo sapiens, UniProt P10721) | cell-free assay | 65
Tyrosine-protein kinase ABL1, phosphorylated (ABL1, Homo sapiens, UniProt P00519, Q252H) | cell-free assay | 83
Mitotic checkpoint serine/threonine-protein kinase BUB1 (BUB1, Homo sapiens, UniProt O43683) | cell-free assay | 85
Activin receptor type-1-like (ACVRL1, Homo sapiens, UniProt P37023) | binding | 85
LIM domain kinase 2 (LIMK2, Homo sapiens, UniProt P53671) | cell-free assay | 90
Mitogen-activated protein kinase kinase kinase kinase 3 (MAP4K3, Homo sapiens, UniProt Q8IVH8) | cell-free assay | 100
cAMP-dependent protein kinase catalytic subunit PRKX (PRKX, Homo sapiens, UniProt P51817) | cell-free assay | 93
Tyrosine-protein kinase Fer (FER, Homo sapiens, UniProt P16591) | cell-free assay | 90
Proto-oncogene tyrosine-protein kinase receptor Ret (RET, Homo sapiens, UniProt P07949) | cell-free assay | 82
Receptor-type tyrosine-protein kinase FLT3 (FLT3, Homo sapiens, UniProt P36888, D835H) | cell-free assay | 72
Mitogen-activated protein kinase kinase kinase 6 (MAP3K6, Homo sapiens, UniProt O95382) | cell-free assay | 91
Testis-specific serine/threonine-protein kinase 1 (TSSK1B, Homo sapiens, UniProt Q9BXA7) | cell-free assay | 73

Study 2 — technique: protein-binding microarray; form: hairpin DNA; medium: in vitro; concentration: not given; relative to: not given; direction: higher = stronger binding
Target: Cellular tumor antigen p53, full length (TP53, Homo sapiens, UniProt P04637, residues 1-393)
Notes: whole hairpin DNA, median over replicate spots
Oligonucleotide | median fluorescence [a.u.]
CGGACAGGCCCGGGCATGTCTCCTGACATGCCCGGGCCTGTCCGACACTC | 16700
CGGACATGCCCGGCGATGTCTCCTGACATCGCCGGGCATGTCCGACACTC | 10100
CCACCCGTGGTGGCATGCCTTCCTAGGCATGCCACCACGGGTGGACACTC | 6480
CCACACCGGGTGGCATGCCTTCCTAGGCATGCCACCCGGTGTGGACACTC (5mC at 7) | 6830
CGGACATGCCCGGGCCTGTCTCCTGACAGGCCCGGGCATGTCCGACACTC | 12100
CGGACATGCCCGGGCATGTCTCCTGACATGCCCGGGCATGTCCGACACTC (5mC at 37) | 20000
CGGACATGCCCAGGCATGTCTCCTGACATGCCTGGGCATGTCCGACACTC | 18800
CCACACGTGGTCGCATGCCTTCCTAGGCATGCGACCACGTGTGGACACTC (5mC at 32) | 5930

Study 3 — technique: protein-binding microarray; form: double-stranded DNA, one strand shown; medium: in vitro; concentration: 940 nM top; notes: 60-bp whole probe; with: salmon DNA 0.4 mg/ml; relative to: random background probes; direction: higher = stronger binding; constant ends, left off below: GCCTAGCAC … GTCTTGATTCGCTTGACGCTGCTG
Target: Interferon regulatory factor 5, full length, phosphomimetic (IRF5, Homo sapiens, UniProt Q13568-2, residues 1-514, S451D/S453D/S456D/S462D)
Oligonucleotide | fitted relative affinity [z-score]
TTAGGTATCGGGACTGGCTTAGTGCTA | 3.69
TTAGATTTCGGGCTTCGATTAGTGCTA | 0.676
GACGTTTTCCTTCTCCTGACGTGCTAG | 0.901
TTAGATTCCAGTTTCGATTGGTGCTAG | 8.35
TCACTACTGCATTTTTTACTGTGCTAG | 0.917
GTAAGTTTCACTTTCCAAAGGTGCTAG | 8.08
GGTCTGGCTGGCTCCTGCACGTGCTAG | -0.923
GACGATCTAAGTTTCGAGACGTGCTAG | 2.72

Study 4 — observed: enzyme activity; mode: inhibitor; concentration: 0.5 µM; relative to: control
Target: G protein-coupled receptor kinase 5 (GRK5, Homo sapiens, UniProt P34947)
Chain of UniProt P34947 (whole entry, looked up): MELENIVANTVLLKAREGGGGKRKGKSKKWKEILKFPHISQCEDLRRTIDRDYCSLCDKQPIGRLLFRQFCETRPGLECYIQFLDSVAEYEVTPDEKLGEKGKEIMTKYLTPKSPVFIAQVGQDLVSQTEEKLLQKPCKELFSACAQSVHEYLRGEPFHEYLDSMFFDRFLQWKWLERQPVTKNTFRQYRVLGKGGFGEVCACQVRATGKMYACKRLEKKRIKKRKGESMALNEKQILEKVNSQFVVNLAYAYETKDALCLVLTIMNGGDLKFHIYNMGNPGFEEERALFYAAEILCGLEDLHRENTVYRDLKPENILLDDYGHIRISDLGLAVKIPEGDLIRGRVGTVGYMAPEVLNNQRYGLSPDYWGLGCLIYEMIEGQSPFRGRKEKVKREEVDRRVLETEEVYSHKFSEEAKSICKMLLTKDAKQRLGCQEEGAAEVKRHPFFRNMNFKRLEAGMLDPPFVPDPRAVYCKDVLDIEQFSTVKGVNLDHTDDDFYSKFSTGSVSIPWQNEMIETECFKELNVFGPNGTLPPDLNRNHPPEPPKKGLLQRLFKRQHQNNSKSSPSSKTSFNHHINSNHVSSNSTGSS
Compound | remaining activity [%]
Nc1nc(Nc2ccc(S(N)(=O)=O)cc2)nn1C(=S)Nc1c(F)cccc1F | 75.6
O=C1c2ccccc2-c2nc3nnnn3nc21 | 74.3
CN(C)S(=O)(=O)c1ccc2c(c1)/C(=C/c1cc3c([nH]1)CCCC3)C(=O)N2 | 95.3
O=Nc1c(-c2c(O)[nH]c3cc(Br)ccc23)[nH]c2ccccc12 | 125
CC(C)n1cnc2c(Nc3cccc(Cl)c3)nc(NCCO)nc21 | 99.4
COc1cccc(-c2cc(=O)c3ccccc3o2)c1N | 97.3
CCN(CC)CCCCN1c2ccccc2Oc2ccc(Cl)cc21 | 103
c1ccc2c(-c3ccncc3)c[nH]c2c1 | 99.2
O=C1NC(=O)/C(=C/c2ccc3c(c2)OC(F)(F)O3)S1 | 105
NC(=O)c1cccc(-c2cc(Nc3ccc(OC(F)(F)F)cc3)ncn2)c1 | 109
COc1ccc(COc2ccc(Cc3cnc(N)nc3N)cc2OC)cc1 | 109
O=C(c1cc2cc(O)ccc2[nH]1)c1cc2cc(O)ccc2[nH]1 | 104
c1cc(-c2cnn3cc(-c4ccc(OCCN5CCCCC5)cc4)cnc23)ccn1 | 111
NC(=O)c1ccc(-c2nc(-c3ccc4c(c3)OCCO4)c(-c3ccccn3)[nH]2)cc1 | 102
CC(C)N(CCC(=O)c1ccc2ccccc2c1)Cc1ccccc1 | 93.7

Excerpt of the above (study 4):
Compound | remaining activity [%]
NC(=O)c1cccc(-c2cc(Nc3ccc(OC(F)(F)F)cc3)ncn2)c1 | 109
COc1ccc(COc2ccc(Cc3cnc(N)nc3N)cc2OC)cc1 | 109
c1ccc2c(-c3ccncc3)c[nH]c2c1 | 99.2
O=C1NC(=O)/C(=C/c2ccc3c(c2)OC(F)(F)O3)S1 | 105
